Published values gathered from unrelated publications.
Lines come from different studies, so protocols differ. ± gives the spread as reported.

Structure (SMILES)	assay	test system	conditions	scale	quantity	result
CN1CCC[C@]1(C)/C=C/S(=O)(=O)NC(=O)Nc1c2c(cc3c1CCC3)CCC2	–	human, plasma	oral, 250 mg, single dose, healthy volunteers	–	AUC(0-t)	245 µg·h/mL
N=C(N)NCCC[C@@H]1NC(=O)[C@H](Cc2c[nH]c3ccccc23)NC(=O)[C@@H](CC2CCCCC2)NC(=O)[C@@H]2CCCN2C(=O)[C@@H](NC(=O)CCc2ccccc2)CCCNC1=O	–	C57BL/6J mice, spinal cord	subcutaneous, 1 mg/kg, two-compartment model	–	apparent peripheral volume (V2/F)	0.05 µg/(ng/g)
COc1cnc2cccc(N3CCc4c(cc(Cn5ccnc5)cc4-c4cn(C)nc4C(F)(F)F)C3=O)c2c1	–	CD-1 male mice, plasma	50 mg/kg	reference: intraperitoneal over oral	AUC ratio	1.5 fold
CCCCCCCOc1ccc(CC[C@](N)(CO)COP(=O)(O)O)cc1C(F)(F)F	–	healthy male humans, urine	oral, day 21	–	dose excreted in urine	< 0.05%
CC(C)[C@H](NC(=O)CNC(=O)[C@H](CCC(N)=O)NC(=O)[C@H](C)N)C(=O)O	LC-MS/MS	human, male, plasma	intravenous, 20 mg/kg three times daily, day 2, first dose, 10 min infusion, geometric mean	–	clearance	850 mL/min/kg
COc1ccc(Nc2nc(Nc3ccc(OCCOCC[18F])cc3)ncc2Br)cc1	–	ICR mice, S180 tumour	intravenous, 370 kBq, 30 min	reference: tumour over muscle	uptake ratio	2.49
CC[C@@H](C)[C@H]1NC(=O)[C@@H]([C@H](C)O)NC(=O)[C@@H](Cc2c[nH]cn2)NC(=O)CNC(=O)[C@@H](CCCNC(=N)N)NC(=O)CNC(=O)[C@@H](Cc2ccccc2)NC1=O	–	rat, retina	eye drop, 0.5% single, 3 h	–	retina concentration	32.8 µg/g protein
C#CCN(CCCNC(=O)CCCCC[N+]1=C(/C=C/C2=C(Cl)C(=C/C=C3\N(CCCCCC(=O)[O-])c4ccccc4C3(C)C)/CCC2)C(C)(C)c2ccccc21)CCCOc1ccc(Cl)cc1Cl	–	C57BL mouse, plasma	intravenous, 5 mg/kg	–	AUC(0-90 min)	832 µg·h/mL
CC[C@H](C)[C@H](NC(=O)[C@H](C)NC(=O)CNC(=O)[C@H](Cc1ccccc1)NC(=O)[C@H](CC(N)=O)NC(=O)[C@H](CC(N)=O)NC(=O)[C@H](CO)NC(=O)[C@H](CO)NC(=O)[C@H](Cc1c[nH]cn1)NC(=O)[C@@H](NC(=O)[C@H](CC(C)C)NC(=O)[C@H](Cc1ccccc1)NC(=O)[C@H](CC(N)=O)NC(=O)[C@H](C)NC(=O)[C@H](CC(C)C)NC(=O)[C@H](CCCNC(=N)N)NC(=O)[C@H](CCC(N)=O)NC(=O)[C@@H](NC(=O)[C@H](C)NC(=O)[C@@H]1CSSC[C@H](NC(=O)[C@@H](N)CCCCN)C(=O)N[C@@H](CC(N)=O)C(=O)N[C@@H]([C@@H](C)O)C(=O)N[C@@H](C)C(=O)N[C@@H]([C@@H](C)O)C(=O)N1)[C@@H](C)O)C(C)C)C(=O)N[C@@H](CC(C)C)C(=O)N1CCC[C@H]1C(=O)N1CCC[C@H]1C(=O)N[C@H](C(=O)N[C@@H](CC(N)=O)C(=O)N[C@H](C(=O)NCC(=O)N[C@@H](CO)C(=O)N[C@@H](CC(N)=O)C(=O)N[C@H](C(=O)N[C@@H](Cc1ccc(O)cc1)C(N)=O)[C@@H](C)O)C(C)C)[C@@H](C)O	ion mobility mass spectrometry	nitrogen drift gas	dimer ion charge +4	–	collision cross section	885.2 ± 4.6 Å²
CCCCN1C(=O)c2cccc3c(NCCN4CCOCC4)ccc(c23)C1=O	–	aqueous medium	pH 6	–	average fluorescence lifetime	6.9 ns
COc1cc(NC(C)=O)c2c(c1O)-c1c(OC)c(OC)cc3c1C(C2)N(C)CC3 (centres unmarked)	–	rat brain homogenate	100 µg/mL, 24 h, room temperature, post-preparative storage	–	remaining compound	95.3 ± 2.3%
Cc1ccc(OCC(=O)O)cc1	–	Sprague-Dawley rat, female, plasma	oral, 10 mg/kg/day of parent drug, day 1, 90-day repeated dosing	–	Cmax	1740 ± 163 ng/mL
C#CCNC(=O)C(CC(C)(C)F)NC(c1ccc(-c2ccc(S(C)(=O)=O)cc2)cc1)C(F)(F)F (centres unmarked)	LC-MS UV trace	aqueous buffer	concentration not given, 23 h, pH 7.5, 37 °C, together with: cysteine 10 mM	–	cysteine adduct formation	0%
CC(C)(O)c1ncc([S@](N)(=O)=NC(=O)Nc2c3c(cc4c2CCC4)CCC3)s1	–	healthy human	oral, 10 mg once daily, day 14, capsule formulation, median	–	Tmax	2.5 h
Cc1ccc(/N=N/c2c(O)ccc3ccccc23)c(C)c1	–	extracted rat blood QC samples	0.2 µg/L, 12 h, room temperature, short-term stability	–	measured concentration	0.229 µg/L
COC1C=COC2(C)Oc3c(C)c(O)c4c(c3C2=O)C2=NC3(CCN(CC(C)C)CC3)NC2=C(NC(=O)C(C)=CC=CC(C)C(O)C(C)C(O)C(C)C(OC(=O)Nc2cccnn2)C1C)C4=O (centres unmarked)	–	CD-1 mouse female, plasma	oral, 10 mg/kg	–	fAUC/MIC ratio	64

Structure (SMILES)	assay	test system	conditions	scale	quantity	result
C=C(c1ncc(C(=O)O)cn1)c1cc2c(cc1C)C(C)(C)CCC2(C)C	–	Sprague-Dawley rat, male	oral, 100 mg/kg, 9 h, sesame oil vehicle	–	blood cholesterol	73 ± 10.7 mg/dL
C[C@H](CN(C)Cc1ccccc1)NC(=O)c1ccc(-c2noc(C(F)(F)[18F])n2)cc1	PET	Sprague-Dawley rat, female, brain and heart	intravenous, 10 min	reference: brain SUV over heart SUV	brain-to-heart ratio	4.71 ± 0.35
C[C@](C#N)(COc1cc(C#N)ccc1C(F)(F)F)NC(=O)c1ccc(S(=O)(=O)C(F)(F)F)cc1	–	calves, plasma	oral, 2.5 mg/kg of monepantel	–	share of total analytes in plasma	> 80%
[2H]C([2H])([2H])NC(=O)c1ccc(N2C(=S)N(c3ccc(C#N)c(C(F)(F)F)c3)C(=O)C2(C)C)cc1F	–	human, plasma	oral, 160 mg, fed, single dose	–	CL/F	238 ± 59.1 mL/h
COc1cc2c(cc1OC)CN(CCCCn1ccc3cc(OCC[18F])ccc31)C2	–	ICR mice, male, lung	intravenous, 120 min	–	uptake	3.41 ± 0.51 %ID/g
COc1ccc(/C=C/c2ccc(-c3ccc(C)cn3)nc2)cc1	TCSPC	MeCN	–	–	fluorescence lifetime	0.6 ns
CCCC[C@H](NC(=O)CNC(=O)CNC(=O)CN1CCN(CC(=O)O)CCN(CC(=O)O)CC1)C(=O)N[C@H]1CC(=O)NCCCC[C@@H](C(N)=O)NC(=O)[C@H](Cc2c[nH]c3ccccc23)NC(=O)[C@H](CCCNC(=N)N)NC(=O)[C@@H](Cc2ccccc2)NC(=O)[C@H](Cc2c[nH]cn2)NC1=O [copper-64 labelled]	–	C57 mouse female B16/F1 melanoma, urine	intravenous, 0.037 MBq, 0.5 h	–	urinary excretion	76.8 ± 1.19%
CC(C)c1cnc(-c2cc(Cl)ccc2F)cc1Nc1ccncc1C(=O)NC(CO)CO	item: pyrexia	human patients	oral, dose not given, grade 5	–	patients with related SAE	0%
C[C@H](Oc1cc(-c2cnn(C3CCN(CC[18F])CC3)c2)cnc1N)c1c(Cl)ccc(F)c1Cl	PET imaging	nude mouse, liver	iv, 60 min post injection	–	tracer uptake	3.7 ± 1.2 %ID/cc
CC(=O)N[C@H](CSSC[C@H](N)C(=O)O)C(=O)N[C@H](C)C(=O)N[C@H](CCCNC(=N)N)C(=O)N[C@H](CCCNC(=N)N)C(=O)N[C@H](CCCNC(=N)N)C(=O)N[C@H](C)C(=O)N[C@H](CCCNC(=N)N)C(N)=O	–	male human, plasma	intravenous, 10 mg, single dose, healthy volunteers	–	Cmax	567 ng/mL
Cn1c(=O)oc2ccc(-c3ccc(CC(C#N)NC(=O)C4CNCCCO4)c(F)c3)cc21 (centres unmarked)	item: urinary occult blood positive	human	80 mg single dose, fasted	–	subjects with TEAE	0%
CC(C)[C@H](NC(=O)CNC(=O)[C@H](CCC(N)=O)NC(=O)[C@H](C)N)C(=O)O	–	healthy volunteers, LPS endotoxaemia, plasma	intravenous, 45 mg/kg/h, 2 h infusion, geometric mean, together with: LPS 2 ng/kg	–	volume of distribution	2.3 L/kg
O=C([O-])CN1CCN(CC(=O)[O-])CCN(CC(=O)NCC2CCC(C(=O)NC(Cc3ccc4ccccc4c3)C(=O)NCCCCC(NC(=O)NC(CCC(=O)O)C(=O)O)C(=O)O)CC2)CCN(CC(=O)[O-])CC1.[44Sc+3] (centres unmarked)	transchelation stability	–	0.5 h, 37 °C, together with: EDTA 10 mM	–	intact complex	96.7 ± 0.1%
C[C@]12C[C@H](c3ccc(C4CC4)cc3)C3=C4CCC(=O)C=C4CC[C@H]3[C@@H]1CC[C@@]2(O)C(F)(F)C(F)(F)F	–	rat liver microsomes	100 % absorption assumed	–	maximal oral bioavailability	61%
COC(=O)c1ccc(-c2cn(Cc3cc(Cl)ccc3O[11CH3])nn2)cc1	–	C57BL/6 mouse, brain	dose not given, 60 min	–	radioactivity	0.69 %ID/cc
CNC(=O)N[C@]1(C)CCC[C@@]2(C)C3CC[C@@]4(C)C[C@]3(CCC21)CC4=O (single isomer, unassigned)	–	processed rat plasma	1.5 ng/mL, 24 h, room temperature, autosampler stability	reference: nominal concentration	relative error	7.1%

Some of these lines once more:
Structure (SMILES)	assay	test system	conditions	scale	quantity	result
CCCC[C@H](NC(=O)CNC(=O)CNC(=O)CN1CCN(CC(=O)O)CCN(CC(=O)O)CC1)C(=O)N[C@H]1CC(=O)NCCCC[C@@H](C(N)=O)NC(=O)[C@H](Cc2c[nH]c3ccccc23)NC(=O)[C@H](CCCNC(=N)N)NC(=O)[C@@H](Cc2ccccc2)NC(=O)[C@H](Cc2c[nH]cn2)NC1=O [copper-64 labelled]	–	C57 mouse female B16/F1 melanoma, urine	intravenous, 0.037 MBq, 0.5 h	–	urinary excretion	76.8 ± 1.19%
CC(C)c1cnc(-c2cc(Cl)ccc2F)cc1Nc1ccncc1C(=O)NC(CO)CO	item: pyrexia	human patients	oral, dose not given, grade 5	–	patients with related SAE	0%
